Assay results of several laboratories.
Parts stem from different laboratories: compare values within a part only.

Block 1
Target: Histone acetyltransferase KAT6A, winged helix 1, GST fusion (KAT6A, Homo sapiens, UniProt Q92794, residues 1-85)
Method: protein binding microarray
Molecule type: double-stranded DNA, one strand shown
Medium: in vitro
Tested at: not given
Setting: 8-mer, flanks averaged, mean of 2 arrays, mostly near background
Baseline: not given
Direction: higher = stronger binding
Residues (chain): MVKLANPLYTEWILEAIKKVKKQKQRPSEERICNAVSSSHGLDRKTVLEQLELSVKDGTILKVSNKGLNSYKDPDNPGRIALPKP
Oligonucleotide | E-score
GACGAATC | -0.188
AATGTCAC | -0.21
CAGATAGA | -0.253
GGCGTAGA | 0.117
ACTCAACC | -0.107

Block 2
Target: Prothrombin, mature alpha-thrombin (F2, Homo sapiens, UniProt P00734)
Method: aptamer microarray, sandwich
Molecule type: DNA with 2'F-ANA
Medium: in vitro
Tested at: 200 nM
Setting: whole 15-mer aptamer, many near background
Added: Cy3 exosite-II aptamer, 400 nM
Direction: higher = stronger binding
Oligonucleotide | mean fluorescence intensity [a.u.]
GGTTGGTGTGGTTGG (2'F-ANA at 1 3 5 7 8 11 14 15) | 49.5
GGTTGGTGTGGTTGG (2'F-ANA at 6 8 9 14) | 247
GGTTGGTGTGGTTGG (2'F-ANA at 1 2 3 5 8 9 10 11 12 14 15) | 51.7
GGTTGGTGTGGTTGG (2'F-ANA at 2 3 6 9 10 14 15) | 237

Block 3
Target: Interferon regulatory factor 5, full length, phosphomimetic (IRF5, Homo sapiens, UniProt Q13568-2, residues 1-514, K96S/S451D/S453D/S456D/S462D)
Method: protein-binding microarray
Molecule type: double-stranded DNA, one strand shown
Medium: in vitro
Tested at: 250 nM
Setting: 60-bp whole probe
Added: salmon DNA 0.4 mg/ml
Baseline: random background probes
Direction: higher = stronger binding
Oligonucleotide | log fluorescence
GCCTAGCACTCATGTTTTTCATTATTACTGTGCTAGGTCTTGATTCGCTTGACGCTGCTG | 1.86 z-score
GCCTAGCACTAAGATCTCAGTCTCGATTAGTGCTAGGTCTTGATTCGCTTGACGCTGCTG | 0.87 z-score
GCCTAGCACTTAGGACTGGGGTATAGGTTAGTGCTAGTCTTGATTCGCTTGACGCTGCTG | 0.00947 z-score
GCCTAGCACGACGATATCGGGTCTCGAGACGTGCTAGTCTTGATTCGCTTGACGCTGCTG | 1.49 z-score

Mixed results
Substance | target | test | system | conditions | scale | endpoint | result
PhoQ, residues 284 288 289 292 302 303 SLSLLA | PhoP, residues 12 14 15 18 19 LHTVL (Escherichia coli, UniProt P23836) | Sort-seq, measured: YFP reporter | E. coli | PhoQ-PhoP variant library, added: 10 µM Mg2+ | baseline: high Mg2+ state, higher = stronger signaling | fold induction | 1.11

A few entries again (block 3):
Oligonucleotide | log fluorescence
GCCTAGCACTTAGGACTGGGGTATAGGTTAGTGCTAGTCTTGATTCGCTTGACGCTGCTG | 0.00947 z-score
GCCTAGCACGACGATATCGGGTCTCGAGACGTGCTAGTCTTGATTCGCTTGACGCTGCTG | 1.49 z-score
